Assay results of several laboratories.
Parts stem from different laboratories: compare values within a part only.

Study 1 — technique: protein-binding microarray; molecule type: double-stranded DNA, one strand shown; sample: in vitro; concentration: 0.8 µM; notes: whole 60-bp probe, no competitor; direction: higher = stronger binding; constant ends, left off below: … GTCTTGATTCGCTTGACGCTGCTG
Target: Centromere-binding protein 1, full length, N-terminal tag (CBF1, Saccharomyces cerevisiae, UniProt P17106, residues 1-351)
UniProt P17106, sequence (whole entry, looked up): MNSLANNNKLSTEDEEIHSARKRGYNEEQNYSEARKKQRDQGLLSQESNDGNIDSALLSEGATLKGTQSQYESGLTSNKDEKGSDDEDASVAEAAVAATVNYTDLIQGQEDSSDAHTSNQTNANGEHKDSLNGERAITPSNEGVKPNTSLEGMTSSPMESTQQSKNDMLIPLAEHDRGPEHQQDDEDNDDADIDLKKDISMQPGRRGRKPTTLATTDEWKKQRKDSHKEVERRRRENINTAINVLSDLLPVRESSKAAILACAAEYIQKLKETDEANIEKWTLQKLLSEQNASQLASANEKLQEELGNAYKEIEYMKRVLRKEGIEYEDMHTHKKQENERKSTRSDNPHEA
Sequence	fluorescence intensity [a.u.]
CTACTTTGCTTTCTTGCTGATGTTGATCCCCGTTTC	702
CTAAAAGAGCGCAACCACGCGTATATTCCGGGCTTC	500
GAAGTGGCTAGGAATCACGGAGACCTCTTGACTTAG	553
CTACACATATTTCAGCTGACTATAAATTTGGCATTC	729
GAAACTTTACCTTATCAACTGATATTTGAAGATTAG	547
CTACTCCACAATGTTCACATGAGGGACAAGGTTTTC	568
GAAACCGAGTGAGTCAGCGTGATCGGCCTCATTTAG	616
CTACTTTCTGATCATCACCCCTTATTGCCTCAGTTC	868
GAAAAAAGCACGTGGCACGAGAAACGCGCACGCTAG	9120
GAATTTGAAGTTTTGCGTGTGACAGACAAGTCCTAG	607
GAACAAATGTGCTCAGCTGTGATTCATTGAAATTAG	523
GAATTTCTTACACCGCATGTGATAGGATACTAGTAG	1430
CCTAACTACTATAGAAACGGTCAATAGCTTCGTACA	528
GAAGTTCTACATGTACTCGTGCTTTCTTTATTGTAG	664
GAAATTTTTGTCCATATCGTGATAATTTTTTTGTAG	644
CTACAACGCAATACTTACGTCACACCAGCCGTATTC	598
GAAGGAATAAACAGTCACCTTTAACAAGAGGAGTAG	573
CTATAATTGTGCCTTCATGTGCCAAGTAAATTGTTC	699
CTAGCGCGAGTTTCCCGGGTGATGGAGCAGTAATTC	523
GAATTTACGCCTGATCACCTTATATCTTCCGCTTAG	609
CCTAACTACTATAGTCACATAATATAGCTTCGTACA	590
CTACAAACTACAGCGCACGTGACCGATAACTATTTC	24500
CTAAGTGCTCATTGGCATGTGACAAGAATTGCGTTC	3740
GAAACTCGCAGTGATCACGGTTTGCTGCGTGTGTAG	767
CTAAATTCTATTGGGCATCACATGGCAAAGCATTTC	2510

Study 2 — target: Cln2 (Saccharomyces cerevisiae); read-out: peptide binding; technique: competitive growth sequencing; molecule type: peptide; organism: Saccharomyces cerevisiae; strain: unfused Cln2 strain; notes: peptide tiling library; direction: direction not given
Sequence	enrichment score
KRCATPVIIDEILPSK	0.306
GPVKLEFDVSDGAT	0.306
HPESPPRKRLKSKGSD	3.81
QYQVVDDIVSKLVFDF	0.237
NEGVSNAVRRSLYIRD	-0.669
YLYLLLTQSLWCRV	-1.27
NESHLDKEHDAVEVAD	0.47
ESSQLTVQAEFDMSAI	0.535
DKYDEGLYRFNSLNDL	0.402
EPRNLLSLFEDTLDPT	0.354
DVSERGYVILPNDYFE	0.693
NSMKELNFSHLPSNSV	0.301
QNPCGSKACRRLFGPV	-1.09

Study 3 — technique: protein-binding microarray; molecule type: double-stranded DNA, one strand shown; sample: in vitro; concentration: 250 nM; notes: 60-bp whole probe; added: salmon DNA 0.4 mg/ml; relative to: random background probes; direction: higher = stronger binding; constant ends, left off below: GCCTAGCAC … GTCTTGATTCGCTTGACGCTGCTG
Target: Interferon regulatory factor 5, full length, phosphomimetic (IRF5, Homo sapiens, UniProt Q13568-2, residues 1-514, K96S/S451D/S453D/S456D/S462D)
Sequence	log fluorescence
GACGATTTCAGTATCAAGACGTGCTAG	2.08 z-score
TTCATTTTCTTTAACTCATTGTGCTAG	1.96 z-score
GACGGACTGGTACTGCTGACGTGCTAG	-0.598 z-score
GTCGGACTGCTTATCCTGACGTGCTAG	-0.331 z-score
GACGGTTTCCTTTTCCTGAGGTGCTAG	1.17 z-score
GACGATATCGGGAATCGAGACGTGCTA	1.25 z-score
TTAGGTCTCCTTATCCGTTAGTGCTAG	-0.196 z-score
TTAGGTTTCTTTATCCTTTAGTGCTAG	1.57 z-score
GTAGGTTTCCTTCTCCTTTAGTGCTAG	0.835 z-score
TCATGTTTGGTTCTTATACTGTGCTAG	0.725 z-score
GACGATTTCAGTTCCCAGACGTGCTAG	0.997 z-score
TCAAGGCTGGTCTCTAACACTGTGCTA	-0.601 z-score
GAAGGTTCCCTTTTCCTGACGTGCTAG	0.227 z-score
TTAAGTATCGACTTTCGGTTAGTGCTA	10.2 z-score
TCAAATTTATAAATAAAACTGTGCTAG	0.462 z-score
TCACTTTCCTTACTTCCCACTGTGCTA	2.11 z-score
TTAGATCTCCTTATCCTTTAGTGCTAG	0.461 z-score
GACGATTTCGGGGTTCGAGACGTGCTA	1.99 z-score
TTAGAAATTTCTTTCTAATTGTGCTAG	1.56 z-score
GACGGACTGTACACTGGGGACGTGCTA	-0.631 z-score
GCCGGTATCGGGTTTCGGGACGTGCTA	4.74 z-score
TTAAGTTTCGGGTTTCGGTTAGTGCTA	10.2 z-score
TCAAGAAAAAGAAAAAAAACTGTGCTA	0.671 z-score
GAGTGGTTCTGCTTCTTAGCGTGCTAG	-0.452 z-score

Study 4 — technique: protein binding microarray; molecule type: double-stranded DNA, one strand shown; sample: in vitro; concentration: not given; relative to: not given; direction: higher = stronger binding
Target: Histone acetyltransferase KAT6A, both winged helices, GST fusion (KAT6A, Homo sapiens, UniProt Q92794, residues 1-181)
Notes: 8-mer, flanks averaged, mean of 2 arrays, mostly near background
Construct (chain): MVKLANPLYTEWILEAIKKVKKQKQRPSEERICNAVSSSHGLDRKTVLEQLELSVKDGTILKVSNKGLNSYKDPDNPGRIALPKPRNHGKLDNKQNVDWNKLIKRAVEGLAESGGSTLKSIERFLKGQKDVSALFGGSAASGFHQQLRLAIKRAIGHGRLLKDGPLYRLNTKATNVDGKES
Sequence	E-score
ACTTGGAA	-0.191
GCCGAATA	0.186
AAGTAACG	-0.0784
ATACAAGA	-0.0776
CATGGGTC	-0.227
ATGTCTGC	-0.0193
AGTGGTAT	-0.214
TACGTGGA	0.0901
TAAACTCA	-0.0802
AAAACAGC	0.00212
TAAACTTA	-0.119
CGGGTATC	0.197
AAAGGGTT	-0.0516
GACAGCGC	0.308
ACTCTAAG	-0.00193
ATAACGCC	0.0419
CTTGCCCA	-0.119
CGGCCAAC	0.143
ATCCAAGC	-0.114
CACCACCG	0.124
ACTACTGC	0.091
AAAACAGA	0.0539
AAACATCA	-0.109
ATTAGTAC	-0.0654
ATTTCGTC	-0.113

Study 5 — technique: RNA Bind-n-Seq; molecule type: RNA; sample: in vitro; concentration: 200 nM; notes: whole 134-nt RNA, ends assumed; added: 150 mM KCl; relative to: input library; direction: higher = stronger binding
Target: Fragile X messenger ribonucleoprotein 1, C-terminal low-complexity region (Fmr1, Mus musculus, UniProt P35922)
Constant ends, left off below: GGGAGUUCUACAGUCCGACGAUC … UGGAAUUCUCGGGUGUCAAGG
Sequence	log2 enrichment
CUGUGCUACACAUCGUAUGUACCGAAUCGGGUUUUUUUGGGGUUUUUUUGGUUUUUUUGGGGAAAGUAUUAUGUUACGCCGUUCGGAUCU	-0.28
AAGUCCUGUGCUACACAUCGUAUGUACCGAAUCGGAAAAAGGAAAAAAAGGUUUGGAAAGUAUUAUGUUACGCCGUUCGGAUCUGCACUU	-1.42
CAAGUCCUGUGCUACACAUCGUAUGUACCGAAUCGGUUUUGGGGUUUUGGUUUUGGAAAGUAUUAUGUUACGCCGUUCGGAUCUGCACUU	-0.521
UGGCCAAUAGCAUCCUUUUCCAGUCUUCCGGUCUGACAAAUGGAAUAAUAGAAGAAAAGGACAUACAUGAAGAAUUGCCAAAACGGAAAG	-0.624
GCCACCAUGCCCACCUAGUUUUUGCAUUUUUAGUGGAGGUGUGGUUUCACUGUGUUGGCCAGGCUGGUCUCUUAACUCCUGACCUCAGGU	-0.0233
UGGCCCUGGUGGCAUGCGGGGAGGAAGAGGUGGCCUCAUGGAUCGUGGUGGUCCCGGUGGAAUGUUCAGCGGUGGCCGUGGUGGAGACAG	-0.142
AGUCCUGUGCUACACAUCGUAUGUACCGAAUCGGGCCCCGGCCCCGGGGCCCCGGGGAAAGUAUUAUGUUACGCCGUUCGGAUCUGCACU	-1.34
UGUGCUACACAUCGUAUGUACCGAAUCGGGGAAAAAAAGGGGAAAAAAAGGGGAAAAAAAGGAAAGUAUUAUGUUACGCCGUUCGGAUCU	-0.122
GUUAAUUCCACCAUCCCCAUCACAGCAGAAGUUUUCAAGAAGCAUGGAGUGUACAACCCCAACAAAAUCUUCGGCGUGACGACCCUGGAC	0.555
AAGUCCUGUGCUACACAUCGUAUGUACCGAAUCGGCCCCGGGCCCCGGGCCCCGGGGAAAGUAUUAUGUUACGCCGUUCGGAUCUGCACU	-0.731
UAACUUUAGAGGAGGAUCUGAUGGAUAUGGCAGUGGACGUGGAUUUGGGGAUGGCUAUAAUGGGUAUGGAGGAGGACCUGGAUGUGGCAA	0.19
UACAUUCUUUACCCCUUGUUUUAAUUUGAACCCCACCAUAUGGAUUUUUUUCCUUAAGAAAAUCUCCUUUUAGGAGAUCAUGGUGUCACA	0.016
CACAGACAACACGCACCCACACAGACACAGAGGGAAGGGGUUGGGAUGGGGACAGGGUGCACAGCAGGGCGGGGUAGGACCCCAGAAACU	1.17
ACCAUGCAGGUGGGCAUCUUUGGGAAGUGGGGCAAGGGGGGGAUAGGGAGGGGGGUAACACUUUGGGAACAGGAGGUCCCAGGUCGUUUC	0.305

A few entries again (study 2):
Sequence	enrichment score
ESSQLTVQAEFDMSAI	0.535
DKYDEGLYRFNSLNDL	0.402
HPESPPRKRLKSKGSD	3.81
EPRNLLSLFEDTLDPT	0.354
KRCATPVIIDEILPSK	0.306
DVSERGYVILPNDYFE	0.693
NESHLDKEHDAVEVAD	0.47
QNPCGSKACRRLFGPV	-1.09
